# Measurements from different studies.
# Each numbered part is a random draw from the data of one study; scales do not carry over between parts. Changes are numbered by the printed parent chain.

# Block 1 — technique: aptamer microarray, sandwich; form: DNA with 2'F-ANA; sample: in vitro; tested at: 200 nM; together with: Cy3 exosite-II aptamer, 400 nM; reading: higher = stronger binding; sequence: GGTTGGTGTGGTTGG
# Target: Prothrombin, mature alpha-thrombin (F2, Homo sapiens, UniProt P00734)
# Notes: whole 15-mer aptamer, many near background
Modification,mean fluorescence intensity
2'F-ANA at 1 2 5 8 10 11 13 14,47.5 a.u.
2'F-ANA at 1 4 6 7 9 11 13 14 15,72.3 a.u.
2'F-ANA at 1 4 7 8 9 15,171 a.u.
2'F-ANA at 2 3 7 9,809 a.u.
2'F-ANA at 1 2 3 4 6 7 9 10 11 12 14 15,56.3 a.u.
2'F-ANA at 1 2 4 5 6 8 10 11 12 13 14 15,49.2 a.u.
2'F-ANA at 2 3 4 7 8 13,570 a.u.

# Block 2 — technique: RNA Bind-n-Seq; form: RNA; sample: in vitro; tested at: 365 nM; baseline: no-protein control; reading: higher = stronger binding
# Target: RNA binding protein fox-1 homolog 2, RRM domain, GST-SBP tag (RBFOX2, Homo sapiens, UniProt O43251-10, residues 100-194)
# Notes: natural RNA segment, single round, ends assumed
Sequence,RBNS enrichment (R)
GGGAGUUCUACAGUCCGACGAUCAUUUGAUCAGACCAAACAGUGCUGUUUCCCGGGGAGGAAACACUUUUUUAAUUACCCUUUUGCAGGCUCCCACCUUUAAUCUGUUUUAUACCUUGCUUAUUAAAUGAGCGUGGAAUUCUCGGGUGCCAA,0.482
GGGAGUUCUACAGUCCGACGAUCGAGCGUUCGCGCUCUGGGUCACUGGAUUGUUUCGUGUUUAUGUGUGAUUGUACCAAGGAACUUAGCCUCAUGUAGCAUGUACAGGGUUGUAAUGGUGACCCAGCAGCGAGUGGAAUUCUCGGGUGCCAA,8.82
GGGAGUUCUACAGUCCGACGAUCGCUGCCUCAUGUGACUGCCGUGCCUGUGAAUACGCAGAACCAGGACUCCACCCCACCGUGGAAAGGGAGCUUGAAGCAGAAAAGAGGGCGCCUCGGAGCCAAUGUUGAGCUGGAAUUCUCGGGUGCCAA,0.445
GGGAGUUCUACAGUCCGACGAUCGUGUGGUGGAGAAGAUGCAGCCCAAGGUCACAUACAGGAGGGAUUGGGGACAAGGCAGGUGUAGGGCAGGUCAGGCCGUUGAACAUCUUCCACUCAAAUCUGCUCAGGUUUGGAAUUCUCGGGUGCCAA,1.01
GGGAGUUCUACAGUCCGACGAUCAAAAUUUGUUUUGUAUUAGUUAUUUUACCUUUAGGGACCCUACAACUGAAGAGAGUGGAGAGAAUAAAGAAGUGAACUUUCAUUCAUGUCUGCUACUUUGACCUCAUAAAUGGAAUUCUCGGGUGCCAA,0.615
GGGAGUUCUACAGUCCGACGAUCGCCCGGAGAGGCCAGAGGGUUGGAGCUGCAGGGACCCGUUUGGACCCACAGCCUCUGUUCUAGAGAUGCUUGUAUAGGCUGUUAAUUGUGAUGAAUAAACGUUCAACCCUUGGAAUUCUCGGGUGCCAA,1.1
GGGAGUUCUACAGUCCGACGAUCGCCCAAUAAUCCUCUCUUUUCUGCCAAGUCCUCAACCCAGAAAUGUAGGCUUCUGUGCACCACACGGCACAGCCCACUGAUUGCUGCCACCGGCUCUGUCUUGGUCAGUGUGGAAUUCUCGGGUGCCAA,0.643
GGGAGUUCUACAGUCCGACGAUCUUUCUGCACUGCAACUGUGUGAUUGAAAAAUGAGAUGUUCAUCCAAGCAGUCAAGCCACAGAAACCCAGCAUGUCCCUGUCACAAUCUCAUGGGCACCUUGAUCAUGUCUUGGAAUUCUCGGGUGCCAA,4.82

# Block 3 — technique: DHFR PCA, deep sequencing; sample: yeast; together with: (+)-ABA 710 µM; baseline: wild-type fitted maximum; reading: higher = stronger binding
# Target: ABI1, truncated, D143A, DHFR fusion (Arabidopsis thaliana)
# Notes: methotrexate growth selection, single substitutions
# Starting sequence: PYL1, truncated, DHFR fusion (Arabidopsis thaliana); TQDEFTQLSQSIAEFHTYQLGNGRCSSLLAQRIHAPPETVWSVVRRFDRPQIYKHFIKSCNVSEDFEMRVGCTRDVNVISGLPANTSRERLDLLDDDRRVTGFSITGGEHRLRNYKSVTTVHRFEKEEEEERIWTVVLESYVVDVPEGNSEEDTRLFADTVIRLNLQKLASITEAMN; partner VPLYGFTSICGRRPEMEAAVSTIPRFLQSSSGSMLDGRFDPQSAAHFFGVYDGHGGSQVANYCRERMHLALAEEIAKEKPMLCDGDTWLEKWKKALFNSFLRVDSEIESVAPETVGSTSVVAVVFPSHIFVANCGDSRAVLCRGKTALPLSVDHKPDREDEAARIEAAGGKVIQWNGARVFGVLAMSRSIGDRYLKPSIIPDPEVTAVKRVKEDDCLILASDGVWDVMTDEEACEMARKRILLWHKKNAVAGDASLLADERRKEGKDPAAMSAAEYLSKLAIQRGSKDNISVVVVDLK
Variant,relative binding score [%]
E38F,83.7
D144F,57.9
P36E,105
S9F,94
K54S,8.28

# Single results of other studies
Substance,target,test,system,conditions,scale,measurement,value
"PhoQ, residues 284 288 289 292 302 303 AGGLSV","PhoP, residues 12 14 15 18 19 NQGLL (Escherichia coli, UniProt P23836)","Sort-seq, refers to: YFP reporter",E. coli,"PhoQ-PhoP variant library, together with: 10 µM Mg2+","baseline: high Mg2+ state, higher = stronger signaling",fold induction,1.13

# Some of these lines once more (block 1):
Modification,mean fluorescence intensity
2'F-ANA at 1 2 5 8 10 11 13 14,47.5 a.u.
2'F-ANA at 1 4 6 7 9 11 13 14 15,72.3 a.u.
2'F-ANA at 1 4 7 8 9 15,171 a.u.
